Published values of several laboratories.
Every numbered part comes from another study and shows a few of its results, in no order. Changes are numbered by the printed parent chain.

Study 1 — target: CCND2, cyclin fold, Cln2 fusion (human); method: yeast growth competition, sequencing; medium: yeast; notes: weak parent motif; baseline: not given; direction: higher = stronger binding; measurement: normalised enrichment score
Parent: CDKN1B docking peptide (human); PSACRNLFGPVDH
PSACRNLFGPVVH [D12V]: 0.112
PSAARNLFGPVDH [C4A]: 0.162
PSACRNLFGPVKH [D12K]: 0.106
PSACRNLFGPVIH [D12I]: 0.131
PSAGRNLFGPVDH [C4G]: -0.00991
PSACRNLFGPVDE [H13E]: 0.0729
PSACRNLFCPVDH [G9C]: 0.249
GSACRNLFGPVDH [P1G]: 0.356
PSACRNLFGNVDH [P10N]: 0.188
PSACRNTFGPVDH [L7T]: 0.0649
PSAWRNLFGPVDH [C4W]: 0.268
PSACSNLFGPVDH [R5S]: 0.0562
PSACYNLFGPVDH [R5Y]: 0.0791
PSACRNLFGPVDA [H13A]: 0.349
PSACRNLFGPQDH [V11Q]: 0.322
PSAMRNLFGPVDH [C4M]: -0.157
PSACRNLFVPVDH [G9V]: 0.0382
PDACRNLFGPVDH [S2D]: 0.0957
PSQCRNLFGPVDH [A3Q]: 0.384

Study 2 — method: RNAcompete; molecule type: RNA; medium: in vitro; tested at: 20 nM; notes: 7-mer, probes averaged, single round; baseline: mean of 7-mers; direction: higher = stronger binding; measurement: 7-mer Z-score
Target: PABPC1L2, full length, GST fusion (mouse, UniProt A0ABA7IW68)
Construct (chain): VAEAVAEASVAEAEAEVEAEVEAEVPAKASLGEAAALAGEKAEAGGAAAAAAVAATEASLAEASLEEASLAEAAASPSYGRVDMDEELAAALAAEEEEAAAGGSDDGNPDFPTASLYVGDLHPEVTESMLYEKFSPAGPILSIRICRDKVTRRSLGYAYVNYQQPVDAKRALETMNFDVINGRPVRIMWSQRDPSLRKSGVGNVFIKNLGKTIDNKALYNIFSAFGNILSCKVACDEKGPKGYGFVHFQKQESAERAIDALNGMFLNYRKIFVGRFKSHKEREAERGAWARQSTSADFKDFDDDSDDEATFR
UCGUGUG: -0.28
AACGUCA: -0.0953
GGCUGGC: 0.146
CCUAAUC: -0.26
CAAAAAC: 18
AUUUAGG: 0.561
GAGUGAC: -0.0047
UUGAAUG: -0.202
GAGCUCU: -0.338
GUAAGAG: -0.0971
UAGUCCC: -0.364
AUGGCCG: -0.0283
AGGUACU: -0.141
GCCGCAG: 0.0334
GUUACCU: -0.251
CCAAAUG: 0.0895
AUGUAUU: -0.208
GUACUAG: -0.161
CGCGCAG: -0.0863
CACCGUU: -0.24
ACAGCCC: -0.184
GCGAUGG: 0.193

Study 3 — method: protein-binding microarray; molecule type: double-stranded DNA, one strand shown; medium: in vitro; tested at: 250 nM; notes: 60-bp whole probe; added: salmon DNA 0.4 mg/ml; baseline: random background probes; direction: higher = stronger binding; measurement: log fluorescence; constant ends, left off below: GCCTAGCAC … GTCTTGATTCGCTTGACGCTGCTG
Target: Interferon regulatory factor 5, full length, phosphomimetic (IRF5, Homo sapiens, UniProt Q13568-2, residues 1-514, K96S/S451D/S453D/S456D/S462D)
GCACCTCTAGACTCTAAATTCGTGCTA: 0.0132 z-score
GACGGTATCGACATTCGGGACGTGCTA: 2.17 z-score
GACGGACTGGGGTCTCGGGACGTGCTA: -0.678 z-score
TTAGGATCCGGTTTCGGTTAGTGCTAG: 9.01 z-score
CTTTGCTCATTTTTCAGGGAGTGCTAG: 0.398 z-score
TTCTCTCTGGCCCTCCTGAGGTGCTAG: -0.205 z-score
TTAGGTTTCGGGTATCGGTGAGTGCTA: 9.61 z-score
GACGGTCTCGGTTTCGGGGCGTGCTAG: 2.63 z-score
TTAGGCTTCGACACTGGGTTAGTGCTA: -0.207 z-score
TTTCTTTTCTTTTCTTTTTTGTGCTAG: 6.54 z-score
TTAGGTCTCCTTATACTTTAGTGCTAG: -0.0777 z-score
GACGGTTTCGCTTCCGGGACGTGCTAG: 5.75 z-score
TCATGATTGAATCTCCCACTGTGCTAG: 0.00517 z-score
TTTTTTATCAATCATTTTCGTGTGCTA: 2.72 z-score
GGGCACGTTGTTTAACTTCTGTGCTAG: -0.592 z-score
TTAGTTTTCCTTATCCTTTAGTGCTAG: 1.93 z-score
GACAGTATCCTACTGCTGACGTGCTAG: 0.174 z-score
TTAGGTATCGATATCGGTTAGTGCTAG: 8.93 z-score
GACGGTATCCTACAGCTGACGTGCTAG: -0.232 z-score

Study 4 — method: RNA Bind-n-Seq; molecule type: RNA; medium: in vitro; tested at: 200 nM; notes: whole 134-nt RNA, ends assumed; added: 150 mM LiCl; baseline: input library; direction: higher = stronger binding; measurement: log2 enrichment; each molecule: 7-deaza-guanosine replaces G
Target: Fragile X messenger ribonucleoprotein 1, C-terminal low-complexity region (Fmr1, Mus musculus, UniProt P35922)
Constant ends, left off below: GGGAGUUCUACAGUCCGACGAUC … UGGAAUUCUCGGGUGUCAAGG
AGUCCUGUGCUACACAUCGUAUGUACCGAAUCGGAAAAAAAGGUUUUUGGUUUUUGGAAAGUAUUAUGUUACGCCGUUCGGAUCUGCACU: -3.19
UGUGCUACACAUCGUAUGUACCGAAUCGGGGAAAAAGGGGUUUUUUUGGGGAAAAAAAGGGGAAAGUAUUAUGUUACGCCGUUCGGAUCU: -0.326
AGUCCUGUGCUACACAUCGUAUGUACCGAAUCGGGGAAAAAGGGGAAAGGGGAGGGGAAAGUAUUAUGUUACGCCGUUCGGAUCUGCACU: -0.104
CAAGUCCUGUGCUACACAUCGUAUGUACCGAAUCGGGUGGGUGGGAAAAAAAGGGAAAGUAUUAUGUUACGCCGUUCGGAUCUGCACUUC: -0.28
UCCUCAAGUCCUGUGCUACACAUCGUAUGUACCGAAUCGGUUUGGAGGAGGAAAGUAUUAUGUUACGCCGUUCGGAUCUGCACUUCCAGC: -2.11
UGGCCCUGGUGGCAUGCGGGGAGGAAGAGGUGGCCUCAUGGAUCGUGGUGGUCCCGGUGGAAUUUUCAGAGGUGGCCGUGGUGGAGACAG: 0.133
CCUCAAGUCCUGUGCUACACAUCGUAUGUACCGAAUCGGGAGGGAGGGAGGGAAAGUAUUAUGUUACGCCGUUCGGAUCUGCACUUCCAG: -0.974
UCAAGUCCUGUGCUACACAUCGUAUGUACCGAAUCGGUUUUGGUUUUGGUUUUGGAAAGUAUUAUGUUACGCCGUUCGGAUCUGCACUUC: -1.47

Repeated from above (study 1):
PSAARNLFGPVDH [C4A]: 0.162
PSACRNLFGPVKH [D12K]: 0.106
PSACRNLFGPVIH [D12I]: 0.131
PSAGRNLFGPVDH [C4G]: -0.00991
PSACRNLFGPVDE [H13E]: 0.0729
PSACRNLFCPVDH [G9C]: 0.249
GSACRNLFGPVDH [P1G]: 0.356
PSACRNLFGNVDH [P10N]: 0.188
